Published values pooled from the literature.
Every numbered part comes from another study and shows a few of its results, in no order.

Set 1 — technique: RNA Bind-n-Seq; form: RNA; matrix: in vitro; tested at: 365 nM; relative to: no-protein control; direction: higher = stronger binding; endpoint: RBNS enrichment (R)
Target: RNA binding protein fox-1 homolog 2, RRM domain, GST-SBP tag (RBFOX2, Homo sapiens, UniProt O43251-10, residues 100-194)
Notes: natural RNA segment, single round, ends assumed
Constant ends, left off below: GGGAGUUCUACAGUCCGACGAUC … UGGAAUUCUCGGGUGCCAA
Construct (chain): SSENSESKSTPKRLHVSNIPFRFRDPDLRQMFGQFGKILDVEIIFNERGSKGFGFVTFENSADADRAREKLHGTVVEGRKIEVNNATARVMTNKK
GGCAUGACAUCUAAAAGCUCACUGCCUAUGCAGGGCUCACUCCCCACCAUCCGGAUGGCCUCCCACAGGCCCUCCAGCCUCAAUCCUCCGUGCUUCCUUUUUUCCUUUCC: 0.247
CUGUCUCUUUCCACUUUGUUGGCCCUUCCAGUGGGAUUAUCGAGCAUGUUGUUUUUUCAUAGUGCCUUUUUCCUUAUUUCAAGGGUUGCUUCUGAGUGGUGUUUUUUUUU: 0.428
AUUGCCAUUCCCAUCGCUGUUAGCUCUAGAGCACAUCCAGAGCAUACGUUUACAGAGGAAACUUGAUCAUUUCCAACCAUCUUCCCCUACCCCACCCUCUCGCCCCUGGC: 0.369
AGCCCAGGCAGGGUGAGCAGUCCCAGUGGUCCUAGUGCCGCAUCAGAUCCAGGUGGGUGAGGGCAGGAGGCCCCUGCGGAGGCAGCGUGGAUCUGCCCACACAUAGGCUA: 0.344
GCCUCCUGGGUUCAAGCAGUUCUCUUGCCUCAGCCUCCCAAGUAGCUGGGAUGACAGGCGCACACCACCACGCCCAGCAAAUUUUUUGUAUUUUUAGUAGAAACGGGAUU: 0.495
CUGUUGGGAAUGAUUGCUGUUGGAUUCUGGAAGGGAGGGGAAAGCUGCUCUGCUGCCUCUUUGCCACUUCCUGGAAGCCUUCCUCCCUGGAAGAACAGCCUUUUGCAUCU: 1.69
GAAUAAAUGGGGUUGGGCAUAUCAAACUAAAGAUGACAUCUUAAUUUUGCAUUGAACAUUAAUGUAGCGGAUAUAAUUUGAUGAUUAUACUUCAUUAGAUUUAAUUUCUA: 0.511
UUCAAAAGUGUGAAAUGUCUGAAGAUCAUAUUUUUUAUACAGGUAUUUCAAUUAAAUGUUUUGGUAUAUAAUGGAUAACUUCUGUUUAUUGGACUGGGGCCCUGGGUAGU: 0.912

Set 2 — technique: protein-binding microarray; form: double-stranded DNA, one strand shown; matrix: in vitro; tested at: 2200 nM top; notes: 60-bp whole probe; added: salmon DNA 0.4 mg/ml; relative to: random background probes; direction: higher = stronger binding; endpoint: fitted relative affinity; constant ends, left off below: GCCTAGCAC … GTCTTGATTCGCTTGACGCTGCTG
Target: Interferon regulatory factor 7, full length, phosphomimetic (IRF7, Homo sapiens, UniProt Q92985, residues 1-503, S471D/S472D/S475D/S476D/S477D/S483D/S484D/S487D)
Sequence of UniProt Q92985 (whole entry, unmodified, looked up): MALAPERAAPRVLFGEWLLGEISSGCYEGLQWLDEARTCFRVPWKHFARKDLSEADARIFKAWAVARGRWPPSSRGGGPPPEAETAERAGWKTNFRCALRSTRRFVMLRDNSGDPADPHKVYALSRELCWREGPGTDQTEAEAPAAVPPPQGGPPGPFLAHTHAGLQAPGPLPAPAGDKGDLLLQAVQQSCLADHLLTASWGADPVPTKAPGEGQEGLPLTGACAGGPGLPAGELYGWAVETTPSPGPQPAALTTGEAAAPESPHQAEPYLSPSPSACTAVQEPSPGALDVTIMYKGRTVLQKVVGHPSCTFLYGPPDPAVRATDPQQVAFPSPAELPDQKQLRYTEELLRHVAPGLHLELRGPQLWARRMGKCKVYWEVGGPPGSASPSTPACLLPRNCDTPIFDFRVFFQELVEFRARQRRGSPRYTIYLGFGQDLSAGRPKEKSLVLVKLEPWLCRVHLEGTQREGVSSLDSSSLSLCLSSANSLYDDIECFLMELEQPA
TTAGGTATCTGACTGGGTTAGTGCTAG: 0.0247 z-score
TTAGATATCGGGACTGGGTTAGTGCTA: -0.28 z-score
AACGATTCCAGTTTCGAGACGTGCTAG: 4.25 z-score
TTAGATTTAGGGTTTCGATTAGTGCTA: 2.02 z-score
GACGGTCTCGCTTTCGGGACGTGCTAG: 4.07 z-score
CCCATTCTCAGCCCTGCGCATGTGCTA: 1.15 z-score
GACGGTTCCGACTATCGGGACGTGCTA: 0.176 z-score
GACGGTTTCAGACTGGAGACGTGCTAG: 1.04 z-score
TTAGATATCGGGCATCGATTAGTGCTA: -0.51 z-score
GCCGAACTGGGGACTGGAGACGTGCTA: -0.709 z-score
GACGATCTCAGCCTCGAGACGTGCTAG: 0.216 z-score
GACGGTATCCACACTGGGGACGTGCTA: -0.317 z-score
TGCTTCTAACAGAGGAGGTTGTGCTAG: -0.182 z-score
GACGATAACGGGTATCGAGACGTGCTA: -0.293 z-score
TTATGTTTCGGGTTTCGGTTAGTGCTA: 10.1 z-score
GACGGTTTCGACTATCAGGACGTGCTA: 3.23 z-score
CAGCATCTGCAACATCTACAAGTGCTA: 0.0181 z-score
GACGATATCGACACTGGGGACGTGCTA: 0.0111 z-score
AGGGTGTTCTTTTCTGTTGTCGTGCTA: 1.45 z-score

Set 3 — technique: competition protein-binding microarray; form: double-stranded DNA, one strand shown; matrix: in vitro; tested at: 2 µM; added: Cbf1 competitor, 0.05 µM; direction: higher = stronger binding; endpoint: fluorescence intensity; constant ends, left off below: … GTCTTGATTCGCTTGACGCTGCTG
Target: Phosphate system positive regulatory protein PHO4, full length, GST-tagged (PHO4, Saccharomyces cerevisiae, UniProt P07270, residues 1-312)
Notes: whole 60-bp probe, lowest competitor level
Residues (chain): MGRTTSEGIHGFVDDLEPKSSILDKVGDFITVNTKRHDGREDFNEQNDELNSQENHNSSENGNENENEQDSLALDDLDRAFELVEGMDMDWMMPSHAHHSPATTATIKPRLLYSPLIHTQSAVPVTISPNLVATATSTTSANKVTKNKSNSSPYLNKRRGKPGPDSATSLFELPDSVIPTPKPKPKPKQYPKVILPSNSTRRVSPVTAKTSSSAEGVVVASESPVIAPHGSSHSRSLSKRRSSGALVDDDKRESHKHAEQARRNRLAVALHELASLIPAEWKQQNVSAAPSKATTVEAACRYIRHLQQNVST
CAGGTGTGGTTCAACCAAGATTAAGAGAGTATGATA: 4100 a.u.
CTGAACATCCTATTCCTCGTGGCCGAATGGTTACGG: 11200 a.u.
CCTCGGCTGTTCAGCAACGTGAGATGGTTGTTGTTA: 9280 a.u.
CTAACGAAGGTTTGTATAGTGGGTGACAAGCCAAGT: 3270 a.u.
ATAGTGGTGAGCTGGCACGTTTCTCCACACCTAGTA: 13900 a.u.
CGGGGTTAAGTTTGTCACAATACTTGCTTGCAGCAG: 3600 a.u.
GACCTGGAGGAAGAACATGTGCCCTTGATTCAAGGC: 10200 a.u.
AAACCAATTGGTCGGCACGTTCTGGCAAATGCGTCC: 13900 a.u.
TAGTTATCCAGATGGATCGTGGCCGCGAGTACACTA: 8080 a.u.
CCGGCCATTGCTTACCGCGTGCAAAATCCGTAACAT: 11500 a.u.
CATACCCAACCTTGTATTGTGGGTGAAGATATTTGT: 4430 a.u.

Set 4 — technique: protein binding microarray; form: double-stranded DNA, one strand shown; matrix: in vitro; tested at: not given; relative to: not given; direction: higher = stronger binding; endpoint: E-score
Target: Histone acetyltransferase KAT6A, winged helix 1, GST fusion (KAT6A, Homo sapiens, UniProt Q92794, residues 1-85)
Notes: 8-mer, flanks averaged, mean of 2 arrays, mostly near background
Residues (chain): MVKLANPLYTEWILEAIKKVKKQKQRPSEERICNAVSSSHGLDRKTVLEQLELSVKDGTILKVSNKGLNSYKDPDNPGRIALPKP
AGGGCTTG: -0.0913
ACGCCATG: -0.048
CAGAGTGA: -0.233
ACAACAGC: 0.17
GTTCCAGA: -0.231
AATACACC: -0.027
ATAGAGGG: -0.0618
CGGCGGTA: 0.463
ATCGTCTA: -0.0813
AATGAAGG: -0.222
CGGGTGAA: 0.117
ATGTCACC: -0.0613
AAACGACG: 0.0348
TACTACTA: 0.149
AAACTCGG: 0.0642
GTGCGTTA: 0.186
TCGATCAA: -0.134
GCCGAGTA: 0.224
GAGGCTGA: -0.253
AGTATGGG: -0.184
ATGCGCTC: 0.239
ACGGGACT: 0.32
GCCCACCA: -0.253
CGCAACTC: 0.164
ACTGTCAG: -0.03

Set 5 — technique: protein-binding microarray; form: hairpin DNA; matrix: in vitro; tested at: not given; relative to: not given; direction: higher = stronger binding; endpoint: median fluorescence
Target: GDNF-inducible zinc finger protein 1, full length (GZF1, Homo sapiens, UniProt Q9H116, residues 1-711)
Sequence of UniProt Q9H116 (whole entry, looked up): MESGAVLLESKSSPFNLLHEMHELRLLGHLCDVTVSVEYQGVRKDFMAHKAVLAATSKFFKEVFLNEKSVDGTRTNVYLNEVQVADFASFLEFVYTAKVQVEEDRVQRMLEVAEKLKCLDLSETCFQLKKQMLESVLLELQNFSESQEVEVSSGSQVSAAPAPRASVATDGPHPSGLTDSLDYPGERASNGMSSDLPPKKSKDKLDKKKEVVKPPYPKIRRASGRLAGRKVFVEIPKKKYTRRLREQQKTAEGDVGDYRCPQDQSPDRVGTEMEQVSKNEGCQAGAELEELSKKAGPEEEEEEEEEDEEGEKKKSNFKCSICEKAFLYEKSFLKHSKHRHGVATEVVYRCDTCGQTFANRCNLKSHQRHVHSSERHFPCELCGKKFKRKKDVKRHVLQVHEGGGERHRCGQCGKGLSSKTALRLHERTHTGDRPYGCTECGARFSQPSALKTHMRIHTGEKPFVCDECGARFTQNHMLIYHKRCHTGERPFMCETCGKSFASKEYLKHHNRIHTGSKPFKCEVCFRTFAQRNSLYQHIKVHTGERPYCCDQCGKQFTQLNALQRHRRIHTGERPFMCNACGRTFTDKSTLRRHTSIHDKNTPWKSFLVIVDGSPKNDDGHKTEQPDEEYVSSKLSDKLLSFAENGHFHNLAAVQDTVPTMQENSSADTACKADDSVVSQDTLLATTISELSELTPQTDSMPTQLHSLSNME
Notes: whole hairpin DNA, median over replicate spots
GAGGCCCTTACGGTAATGCCTCCTGGCATTACCGTAAGGGCCTCACACTC: 607 a.u.
GAGGCCATTACAGTAATGCCTCCTGGCATTACTGTAATGGCCTCACACTC: 376 a.u.
GAGGCCATTAAGGTAATGCCTCCTGGCATTACCTTAATGGCCTCACACTC: 332 a.u.
GAGGCCATTACGGTAATGCCTCCTGGCATTACCGTAATGGCCTCACACTC (5mC at 32): 810 a.u.
GAGGCCATTACGGGAATGCCTCCTGGCATTCCCGTAATGGCCTCACACTC: 513 a.u.
GAGGCCATTCCGGTAATGCCTCCTGGCATTACCGGAATGGCCTCACACTC (5mC at 10): 531 a.u.
GAGGCCATTACGGAAATGCCTCCTGGCATTTCCGTAATGGCCTCACACTC: 456 a.u.
GAGGCCATTACGGCGATGCCTCCTGGCATCGCCGTAATGGCCTCACACTC (5mC at 14 30): 531 a.u.
GAGGCCCGTACGGTAATGCCTCCTGGCATTACCGTACGGGCCTCACACTC (5mC at 7 37): 727 a.u.
GAGGCCATTACGGTACTGCCTCCTGGCAGTACCGTAATGGCCTCACACTC (5mC at 16): 632 a.u.
GAGGCCATTCGGGTAATGCCTCCTGGCATTACCCGAATGGCCTCACACTC (5mC at 10): 502 a.u.

A few entries again (set 5):
GAGGCCATTAAGGTAATGCCTCCTGGCATTACCTTAATGGCCTCACACTC: 332 a.u.
GAGGCCATTACGGTAATGCCTCCTGGCATTACCGTAATGGCCTCACACTC (5mC at 32): 810 a.u.
GAGGCCATTACGGGAATGCCTCCTGGCATTCCCGTAATGGCCTCACACTC: 513 a.u.
GAGGCCATTCCGGTAATGCCTCCTGGCATTACCGGAATGGCCTCACACTC (5mC at 10): 531 a.u.
GAGGCCATTACGGAAATGCCTCCTGGCATTTCCGTAATGGCCTCACACTC: 456 a.u.
GAGGCCATTACGGCGATGCCTCCTGGCATCGCCGTAATGGCCTCACACTC (5mC at 14 30): 531 a.u.
GAGGCCCGTACGGTAATGCCTCCTGGCATTACCGTACGGGCCTCACACTC (5mC at 7 37): 727 a.u.
GAGGCCATTACGGTACTGCCTCCTGGCAGTACCGTAATGGCCTCACACTC (5mC at 16): 632 a.u.
GAGGCCATTCGGGTAATGCCTCCTGGCATTACCCGAATGGCCTCACACTC (5mC at 10): 502 a.u.
